# Measured values collected from several papers.
# A part holds a random share of what one study measured. Positions count from the first letter of the parent shown.

# Set 1 — technique: DHFR PCA, deep sequencing; medium: yeast; together with: (+)-ABA 17 µM; reference: wild-type fitted maximum; direction: higher = stronger binding
# Target: ABI1, truncated, D143A, DHFR fusion (Arabidopsis thaliana)
# Notes: methotrexate growth selection, single substitutions
# Starting sequence: PYL1, truncated, DHFR fusion (Arabidopsis thaliana); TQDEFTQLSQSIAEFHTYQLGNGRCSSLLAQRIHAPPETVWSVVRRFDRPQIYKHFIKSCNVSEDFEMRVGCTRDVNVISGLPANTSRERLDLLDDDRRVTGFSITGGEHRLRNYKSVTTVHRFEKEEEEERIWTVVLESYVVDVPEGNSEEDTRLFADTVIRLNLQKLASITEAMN; partner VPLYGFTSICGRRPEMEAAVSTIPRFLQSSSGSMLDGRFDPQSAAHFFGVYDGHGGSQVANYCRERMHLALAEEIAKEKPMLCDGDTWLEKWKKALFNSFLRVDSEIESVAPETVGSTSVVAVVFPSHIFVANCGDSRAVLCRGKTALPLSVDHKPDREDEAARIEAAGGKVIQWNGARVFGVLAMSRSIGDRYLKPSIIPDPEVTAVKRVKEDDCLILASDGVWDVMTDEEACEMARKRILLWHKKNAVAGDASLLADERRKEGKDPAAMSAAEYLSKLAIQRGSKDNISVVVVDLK
Substitution,relative binding score
L20H,90.3%
E127H,84.7%
D92L,5.97%
T120W,-2.29%
A13Y,59.9%
L138I,63.3%
I12V,68.1%
V62A,32.1%
N165V,-7.21%
V44E,-3.76%
Q19D,89.9%
N77G,76.6%
P50Q,-12.1%
E128H,89.6%
S63R,83%
A35M,12.3%

# Set 2 — target: CCNE2, cyclin fold, Cln2 fusion (human); technique: yeast growth competition, sequencing; medium: yeast; notes: strong parent motif; reference: not given; direction: higher = stronger binding
# Starting sequence: DTL docking peptide (human); PSSMRKICTYFHR; partner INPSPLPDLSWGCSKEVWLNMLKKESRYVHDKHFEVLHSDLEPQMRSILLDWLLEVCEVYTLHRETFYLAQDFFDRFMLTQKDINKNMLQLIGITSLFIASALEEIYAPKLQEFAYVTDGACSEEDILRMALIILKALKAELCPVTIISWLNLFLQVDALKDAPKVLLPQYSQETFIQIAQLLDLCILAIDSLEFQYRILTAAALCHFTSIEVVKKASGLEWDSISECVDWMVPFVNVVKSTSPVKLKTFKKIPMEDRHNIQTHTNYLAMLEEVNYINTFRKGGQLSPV
Substitution,normalised enrichment score
H12A,1.12
T9A,0.963
M4A,1.03
K6A,1.12
I7A,0.617
C8A,0.835

# Set 3 — technique: universal PBM; molecule type: double-stranded DNA, one strand shown; medium: in vitro; tested at: 600 nM; direction: higher = stronger binding
# Target: Sal-like protein 4, full length isoform A (SALL4, Homo sapiens, UniProt Q9UJQ4, residues 1-1053)
# Sequence of UniProt Q9UJQ4 (whole entry, looked up): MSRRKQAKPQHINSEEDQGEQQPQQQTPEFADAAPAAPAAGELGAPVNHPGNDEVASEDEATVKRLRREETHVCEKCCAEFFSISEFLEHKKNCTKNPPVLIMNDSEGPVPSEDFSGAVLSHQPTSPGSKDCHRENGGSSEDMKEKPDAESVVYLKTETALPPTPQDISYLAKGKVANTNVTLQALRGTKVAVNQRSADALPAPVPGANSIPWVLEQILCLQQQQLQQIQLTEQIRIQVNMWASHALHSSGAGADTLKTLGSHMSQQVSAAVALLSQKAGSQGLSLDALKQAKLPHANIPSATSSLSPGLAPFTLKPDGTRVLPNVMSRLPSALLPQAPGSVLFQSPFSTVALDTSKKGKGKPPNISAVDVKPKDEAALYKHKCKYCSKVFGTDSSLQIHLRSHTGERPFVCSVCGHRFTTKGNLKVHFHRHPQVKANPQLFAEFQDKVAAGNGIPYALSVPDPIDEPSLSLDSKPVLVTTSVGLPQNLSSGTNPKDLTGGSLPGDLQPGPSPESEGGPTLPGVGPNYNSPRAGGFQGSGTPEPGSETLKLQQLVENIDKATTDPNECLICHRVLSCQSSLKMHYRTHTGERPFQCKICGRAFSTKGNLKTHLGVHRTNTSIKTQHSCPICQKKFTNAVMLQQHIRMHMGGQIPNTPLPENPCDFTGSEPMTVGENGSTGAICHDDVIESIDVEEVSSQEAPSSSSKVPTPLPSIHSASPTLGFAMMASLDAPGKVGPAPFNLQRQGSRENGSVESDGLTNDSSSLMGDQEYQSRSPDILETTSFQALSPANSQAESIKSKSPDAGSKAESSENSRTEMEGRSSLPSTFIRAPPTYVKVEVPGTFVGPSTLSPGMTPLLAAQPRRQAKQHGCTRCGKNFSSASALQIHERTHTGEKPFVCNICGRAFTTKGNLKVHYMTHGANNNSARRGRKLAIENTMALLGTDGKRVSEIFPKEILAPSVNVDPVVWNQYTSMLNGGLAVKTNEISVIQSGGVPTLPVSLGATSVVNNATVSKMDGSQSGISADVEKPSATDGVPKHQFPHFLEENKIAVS
# Notes: 8-mer, flanks averaged, mean of replicates
Oligonucleotide,E-score
TCCCGGGA,-0.31
CCATCCAC,-0.198
ATGTCCAC,-0.00408
CAACTGGC,-0.133
ACACCCCG,-0.331
CCGCCCCA,-0.198
ACCAAAGC,-0.126
TAAACCTA,0.108
GCTAGCCA,-0.345
CCTGCACC,-0.337
ACGCCGGG,-0.317
ATACGTAC,0.0851
CCGATGGA,-0.196
CTAACTAA,0.158
ATGCTAAT,0.195
ACGAAGTG,0.0582
GCCTTGTA,0.0691
CACGGATG,-0.041
ATCCACCC,-0.115
CCGATTAG,-0.0936
ATGTTGCG,0.116
CTGCCGGC,-0.305
GGCTCAAC,-0.202
CAGGCGTA,-0.0122
CACGCTCA,-0.0529

# Set 4 — technique: protein-binding microarray; molecule type: double-stranded DNA, one strand shown; medium: in vitro; tested at: 250 nM; notes: 60-bp whole probe; together with: salmon DNA 0.4 mg/ml; reference: random background probes; direction: higher = stronger binding; constant ends, left off below: GCCTAGCAC … GTCTTGATTCGCTTGACGCTGCTG
# Target: Interferon regulatory factor 7, full length, phosphomimetic (IRF7, Homo sapiens, UniProt Q92985, residues 1-503, S101K/S471D/S472D/S475D/S476D/S477D/S483D/S484D/S487D)
# Construct (chain): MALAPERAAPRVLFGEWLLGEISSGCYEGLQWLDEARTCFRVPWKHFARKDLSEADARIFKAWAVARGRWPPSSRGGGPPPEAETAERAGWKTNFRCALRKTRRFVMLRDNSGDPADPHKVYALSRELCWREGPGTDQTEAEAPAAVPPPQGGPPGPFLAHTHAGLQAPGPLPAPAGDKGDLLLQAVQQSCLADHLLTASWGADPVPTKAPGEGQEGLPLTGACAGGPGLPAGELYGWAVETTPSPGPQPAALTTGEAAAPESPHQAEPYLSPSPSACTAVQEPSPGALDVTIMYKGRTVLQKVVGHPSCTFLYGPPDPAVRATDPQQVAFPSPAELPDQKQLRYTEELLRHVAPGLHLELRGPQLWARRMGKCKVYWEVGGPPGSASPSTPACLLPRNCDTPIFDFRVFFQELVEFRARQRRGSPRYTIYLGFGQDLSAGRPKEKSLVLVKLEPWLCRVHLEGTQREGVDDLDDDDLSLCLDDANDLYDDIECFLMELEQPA
Oligonucleotide,log fluorescence [z-score]
GACGGTATCCCACTGCTGACGTGCTAG,-0.227
TTAGGTTACGACTATCGGTTAGTGCTA,0.193
GACAGTCTCCTTCTCCTGACGTGCTAG,0.144
ACGTTTTTCATTTTTTTTTTGTGCTAG,2.13
GACGGTTTCGACACTGGGGACGTGCTA,3.82
GACGGTTTTGGGACTGGGGACGTGCTA,0.448
GACGGACTGCTTTTCCCGACGTGCTAG,0.464
TTAGATCTCTGACTGGATTAGTGCTAG,-0.0642
TTAGGACTGGGATTGGGTTAGTGCTAG,0.117
GACGGTTCCCCTTTCCTGACGTGCTAG,2.01
TCATTTTCCTTATTGCTTACTGTGCTA,3.55
TTTTTTTTATCAATCATTTTGTGCTAG,0.786
GACGGTTTCCGACTGGGGACGTGCTAG,1.14
TTAGATTTCTGGTTTCGATTAGTGCTA,9.07
GACGGTTTCCTACTGCTGGCGTGCTAG,1.71
GACGGACTGGACACTGGGGGCGTGCTA,-0.131

# Set 5 — technique: aptamer microarray, sandwich; molecule type: DNA with 2'F-ANA; medium: in vitro; tested at: 200 nM; together with: Cy3 exosite-II aptamer, 400 nM; direction: higher = stronger binding; oligonucleotide: GGTTGGTGTGGTTGG
# Target: Prothrombin, mature alpha-thrombin (F2, Homo sapiens, UniProt P00734)
# Notes: whole 15-mer aptamer, many near background
Modification,mean fluorescence intensity [a.u.]
2'F-ANA at 3 4 6 7 10 12 13 15,235
2'F-ANA at 2 3 4 6 7 8 9 11 12 14,265
2'F-ANA at 2 3 7 9 10 15,409
2'F-ANA at 1 2 4 5 7 8 9 11 14 15,53.1
2'F-ANA at 3 4 5 6 7 8 11 13 15,106
2'F-ANA at 3 4 6 8 9 10 12 13 14,172
2'F-ANA at 2 4 9 10 13 14,64.9
2'F-ANA at 1 5 13 14 15,44.8
2'F-ANA at 2 3 5 6 7 8 12 15,246
2'F-ANA at 2 6 7 8 9 10 11 12 13 15,117
2'F-ANA at 3 4 5 6 7 10 11 12 13,79.5
2'F-ANA at 1 7 8 9 10 11 12 14,49.8
2'F-ANA at 1 2 3 7 9 10 13 14,55.6
2'F-ANA at 1 3 6 8 9 15,303
2'F-ANA at 6 7 10 12 14 15,115
2'F-ANA at 1 3 4 5 6 10 12 13,48.6
2'F-ANA at 1 4 5 9 10 11 12 14,45.3
2'F-ANA at 2 3 4 6 9 10 11 12 15,220
2'F-ANA at 3 5 7 9 12 13,167
2'F-ANA at 4 5 10 14 15,58.9
2'F-ANA at 2 3 12 13 15,1050
2'F-ANA at 1 3 4 6 7 8 10 12 14 15,53.7
2'F-ANA at 1 2 3 4 5 7 8 9 10 11 15,81.6
2'F-ANA at 1 4 5 9 10 12 13 14 15,46.3
2'F-ANA at 1 3 4 5 11 13,48.5

# Set 6 — technique: RNA Bind-n-Seq; molecule type: RNA; medium: in vitro; tested at: 365 nM; reference: no-protein control; direction: higher = stronger binding
# Target: RNA binding protein fox-1 homolog 2, RRM domain, GST-SBP tag (RBFOX2, Homo sapiens, UniProt O43251-10, residues 100-194)
# Notes: natural RNA segment, single round, ends assumed
# Constant ends, left off below: GGGAGUUCUACAGUCCGACGAUC … UGGAAUUCUCGGGUGCCAA
# Construct (chain): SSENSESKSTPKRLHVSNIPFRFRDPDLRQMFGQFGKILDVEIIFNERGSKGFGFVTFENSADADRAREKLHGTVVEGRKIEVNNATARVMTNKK
Oligonucleotide,RBNS enrichment (R)
CUAGUCUCUGAUUUUUGAGUCUGGCGGAGGCCUCUUGACCAUGCUGCCCAUGCUGUCUACUGUGCCUCCUUAUGAGGGCAUCAUGUUGGUCUCUGUUGUGCUUACUGCAG,0.261
CAUAGCAAUAACAUUCCCACUGCCAGGGGUUCUUGAGCCAGCCAGGCCCUGCCAGUGGGGAAGGAGGCCAAGCAGUGCCUGCCUAUGAAAUUUCAACUUUUCCUUUCAUA,0.604
UGAAUGAAUUACAGUUUUUAUUACGGAAUCUCGCCGCUACCCCUGUUCCCCUCCUGUGUCCUUUUUCUCGUUCUUUCUUUCCUGUCCAGUGCAUGAUGUUUAAGGCCACA,3.22
AAGGCACAAAUUAUUUCAAAGGAGUUGCUCUAAAAACAGAUUAUUUCCCGGAAAAAAAAAAAUGCAAUAAUGGGAAUGAUUUGGGGCUUUUAUUUUUUAUUUUAAAAGAA,0.711
CUCUACAAAGCACAACGAAAAACAACAAAUGGAGUUGUGCUAUGUUGUAUUGCUUUGCACAAAAUUAGGAACAGGUGUUUGACAAUUGAAUUUGUUUUCUGUGAAUUCUA,0.409
UAGGGAUCAUUAGGUUCUGGUUUGAACAUUCUGAAUGUGAACAAAAUGAAAUAGUAGUUAAGAGGUGUUUUCCCACUGUGUUUAAAGAGAACACUAGUAAUUCUGGUUUU,1.51
GAAAUGUAAAUUAUUUCAAGUACUUCAGGGUUUAGUUUUCUUAGUGACACCCUGGACCCUGGAUGCUGCUUUCUAAAGUGCACCUGAUCCAUGCAGUUUUAUGUCUUCAU,0.323
CAGGACCUUCUUUCAGAACGAGGGUAGUAUUACCCUAUCUGUUGGAAAGGAUGGUUUACAUAGCAGUUCCAGCCUCCUUUUGCUUUGGCCAGUUGGCCUUCUCACUUUGA,0.291
UGAAGCUAUUGUCAGCUUCUCUAUUUCAAAUGCAAUCAGCAUAUAUCUAUAUUGAUAUCAGAAAAUACUUGUUUUUUAAAGAUAUAUUGAUGUAUGAUAAAGAUGAUCUA,0.41
UCAGCUCCCAAAGGCCCACUGCAGUGGUGGUUCAGUGAGCACUCUGAUGAGUGCUGAUGGGCUAACCCUACCCUGUACAAGGGCUCAUAAGGCUACUAAGCAUUAGGGCC,0.213
UAUGGCUGUUGAAAAGUAUAGAGCUAAAUUGAUUUAAUUACACUUUCCUUUGUACUUUAAAAAAAAGUAUGCUAGCACUAUUGUACCUUGAAAGGAUUUCCACCAGACUG,1.8
CCUGGACCACAAUUUGUAAGCCAUUCUAAUACAUCCCCUUUAUAUGUAUUUUUUCAUUCUAUAAGUUCUGUUCUAGAGAAUCCCAAGUAAUACAGAUUUUCAUAUCAGAG,0.372

# A few entries again (set 4):
Oligonucleotide,log fluorescence [z-score]
GACGGTTTCGACACTGGGGACGTGCTA,3.82
GACGGTTTTGGGACTGGGGACGTGCTA,0.448
GACGGACTGCTTTTCCCGACGTGCTAG,0.464
TTAGATCTCTGACTGGATTAGTGCTAG,-0.0642
TTAGGACTGGGATTGGGTTAGTGCTAG,0.117
GACGGTTCCCCTTTCCTGACGTGCTAG,2.01
TCATTTTCCTTATTGCTTACTGTGCTA,3.55
TTTTTTTTATCAATCATTTTGTGCTAG,0.786
GACGGTTTCCGACTGGGGACGTGCTAG,1.14
TTAGATTTCTGGTTTCGATTAGTGCTA,9.07
GACGGTTTCCTACTGCTGGCGTGCTAG,1.71
GACGGACTGGACACTGGGGGCGTGCTA,-0.131
